Measurements collected from several papers.
Lines come from different studies, so protocols differ.

SMILES	cell line	test	system	conditions	endpoint	result
Cc1ccc(Cc2ccc(NC(=O)CN(C)c3ccccc3N3CCCC3=O)cc2)cc1	HepG2	cell growth or viability, ATP luminescence	–	48 h	CC50	> 40 µM
COc1ccc(S(=O)(=O)ON=C2C=C(C)C(=O)C(C)=C2)cc1	MDA-MB-435S	cell growth or viability	–	–	CC50	1.91 µM
CN(CC(=O)Nc1ccc(N(C)c2ccc(Cl)c(F)c2)cc1)c1ccccc1N1CCCC1=O	HepG2	cell growth or viability, ATP luminescence	–	48 h	CC50	> 40 µM
CNC(=O)c1cc(Oc2ccc(NC(=O)Nc3ccc(Cl)c(C(F)(F)F)c3)cc2)ccn1	WI-38	cell growth or viability, MTT	–	25 µM, 24 h	viability	29%
CCC1=C(CC)/C(=C/NC23CC4CC(CC(C4)C2)C3)N=C1c1cc2ccccc2[nH]1	HepG2	cell growth or viability, MTT	–	48 h	IC50	7.01 µM
CN(CC(=O)Nc1ccc(N(C)c2ccc(Cl)cc2)cc1Cl)c1ccccc1N1CCCC1=O	HepG2	cell growth or viability, ATP luminescence	–	48 h	CC50	> 40 µM
COCCCNC(=N)c1ccc(NC(=O)c2ccc(C(=O)Nc3ccc(C(=N)NCCCOC)cc3)cc2)cc1	K562	cell growth or viability	–	–	IC50	56.3 µM
Cc1ccc(N(C)c2ccc(NC(=O)CN(C)c3ccccc3N3CCCC3=O)c(F)c2)cc1	HepG2	cell growth or viability, ATP luminescence	–	48 h	CC50	> 40 µM
COc1cc(N2CCC(N3CCN(C)CC3)CC2)ccc1Nc1ncc(Cl)c(Nc2ccccc2P(C)(C)=O)n1	MDR1	–	MDCK-MDR1	–	Papp A→B	0.137 to 0.421 ×10⁻⁶ cm/s
Cc1ccc(N(c2ccc(NC(=O)CN(C)c3ccccc3N3CCCC3=O)cn2)C(C)C)cc1F	HepG2	cell growth or viability, ATP luminescence	–	48 h	CC50	> 40 µM
O=C1NC(=O)C(Cc2ccc(O)cc2)S1 (stereo not drawn)	K562	cell growth or viability	–	–	IC50	> 574 µM
N#Cc1ccc(Oc2ccc(NC(=O)CNc3ccccc3N3CCCC3=O)cc2)cc1	HepG2	cell growth or viability, ATP luminescence	–	48 h	CC50	> 40 µM
Cc1cccc(O)c1C(=O)O	K562	cell growth or viability	–	–	IC50	> 200 µM
Cc1ccc(N(C)c2ccc(NC(=O)CN(C)c3ccccc3N3CCCC3=O)cc2)cc1F	HepG2	cell growth or viability, ATP luminescence	–	48 h	CC50	> 40 µM
O=C(COC(=O)c1n[nH]c2ccccc12)Nc1ccc(N2CCCCC2)cc1	K562	cell growth or viability	–	–	IC50	41.6 µM
C=C(C)[C@H](CC=C(C)C)Cc1c(O)cc(O)c2c1O[C@H](c1ccc(O)cc1O)CC2=O	COLO 205	cell growth or viability, MTT	–	48 h	IC50	32.5 µM
O=[N+]([O-])c1cnc2ccccc2c1O	K562	cell growth or viability	–	–	IC50	> 674 µM
Nc1ccn([C@@H]2O[C@H](CO)[C@@H](O)C2(F)F)c(=O)n1	HEK293	cell growth or viability, MTT	–	5 µg/mL, 48 h	viability	26.4%
Cc1cc(O)c(C)c(O)c1C(=O)O	K562	cell growth or viability	–	–	IC50	> 200 µM
Cc1ccc(N(C)c2ccc(NC(=O)CN(C)c3ccccc3N3CCCC3=O)cc2)c(F)c1	HepG2	cell growth or viability, ATP luminescence	–	48 h	CC50	> 40 µM
CSc1nc(C)c(Cl)c(O)n1	K562	cell growth or viability	–	–	IC50	> 670 µM
CCOC(=O)C(C(C)=O)=C1Sc2nc3ccc(S(=O)(=O)N4CCCC4)cc3nc2S1	WI-38	cell growth or viability, MTT	–	3.125 µM, 24 h	viability	100%
CSc1nc(O)n2nccc2n1	K562	cell growth or viability	–	–	IC50	> 703 µM
CC(=O)c1nn(-c2ccc(C)cc2)/c(=N/N=C(\C)c2ccc(NC(=O)c3ccccc3)cc2)s1	WI-38	cell growth or viability, MTS	–	0.625 µM, 24 h	viability	5.12%

Excerpt of the above:
SMILES	cell line	test	system	conditions	endpoint	result
O=C1NC(=O)C(Cc2ccc(O)cc2)S1 (stereo not drawn)	K562	cell growth or viability	–	–	IC50	> 574 µM
C=C(C)[C@H](CC=C(C)C)Cc1c(O)cc(O)c2c1O[C@H](c1ccc(O)cc1O)CC2=O	COLO 205	cell growth or viability, MTT	–	48 h	IC50	32.5 µM
Cc1cc(O)c(C)c(O)c1C(=O)O	K562	cell growth or viability	–	–	IC50	> 200 µM
Cc1ccc(N(C)c2ccc(NC(=O)CN(C)c3ccccc3N3CCCC3=O)c(F)c2)cc1	HepG2	cell growth or viability, ATP luminescence	–	48 h	CC50	> 40 µM
